Published values collected from several papers.
Lines come from different studies, so protocols differ. ± marks the error that the study gave.

Compound | test system | setting | scale | Cmax [ng/mL]
CC1=C2C[C@H]3[C@@H](CC[C@@H]4C[C@H](NS(C)(=O)=O)CC[C@@]43C)[C@@H]2CC[C@@]2(C1)O[C@@H]1C[C@H](C)CN[C@H]1[C@H]2C | patients, plasma | oral, 40 mg daily, day 22, cycle 1 |  | 39.7
Cc1cc(Nc2cc3ncccc3c(N[C@@H]3C[C@H]4CC[C@@H](C3)N4CCC#N)n2)n[nH]1 | Sprague-Dawley rat, female, plasma | oral, 1000 mg/kg/day, last day of 4 weeks |  | 91.8
CO[C@H]1C[C@@H]2CC[C@@H](C)[C@@](O)(O2)C(=O)C(=O)N2CCCC[C@H]2C(=O)O[C@H]([C@H](C)C[C@@H]2CC[C@@H](O)[C@H](OC)C2)CC(=O)[C@H](C)/C=C(\C)[C@@H](O)[C@@H](OC)C(=O)[C@H](C)C[C@H](C)/C=C/C=C/C=C/1C | human, whole blood | oral, 30 mg, without grapefruit juice |  | 68.5
CC(C)NC[C@@H](C(=O)N1CCN(c2ncnc3c2[C@H](C)C[C@H]3O)CC1)c1ccc(Cl)cc1 | human, normal hepatic function, plasma | oral, 100 mg single dose, reference group versus Mild | reference: NCI classification | 62.6
CCCC[C@H](NC(C)=O)C(=O)N[C@H]1CCC(=O)NC[C@@H](C(=O)N[C@@H](Cc2c[nH]c3ccccc23)C(N)=O)NC(=O)[C@H](CCCNC(=N)N)NC(=O)[C@@H](Cc2ccccc2)NC(=O)[C@H](Cc2c[nH]cn2)NC1=O | CD Sprague-Dawley rat, female, plasma | subcutaneous, 1.0 mg/kg/day, day 1 |  | 516
CNCc1ccc(-c2[nH]c3cc(F)cc4c3c2CCNC4=O)cc1 | human, fasted, plasma | oral, 600 mg, single dose, median |  | 585
O=c1[nH]c(=O)c(Cc2cccc(C(F)(F)F)c2)c([C@H]2CC[C@H](c3ccccc3)CC2)[nH]1 | human, plasma | oral, 450 mg once daily, day 1, fasted, geometric mean |  | 356
Cc1nc2cccc(OCC(C)(C)C(=O)NC(C)C)c2c(N)c1C(=O)O | male Sprague-Dawley rat, plasma | oral, 100 mg/kg, single dose |  | 147
CS(=O)(=O)Nc1ccc(C(=O)O[C@@H](Cc2c(Cl)c[n+]([O-])cc2Cl)c2ccc(OC(F)F)c(OCC3CC3)c2)cc1OCC1CC1 | human, plasma | inhaled, 600 µg once daily, day 7, single-dose dry powder inhaler |  | 0.702
CC(C)[C@H](N)C(=O)NCCCS(=O)(=O)O | human, plasma | oral, 340 mg capsule, day 14, fed, multiple dosing |  | 8830 ± 2660

Repeated from above:
Compound | test system | setting | scale | Cmax [ng/mL]
CC1=C2C[C@H]3[C@@H](CC[C@@H]4C[C@H](NS(C)(=O)=O)CC[C@@]43C)[C@@H]2CC[C@@]2(C1)O[C@@H]1C[C@H](C)CN[C@H]1[C@H]2C | patients, plasma | oral, 40 mg daily, day 22, cycle 1 |  | 39.7
Cc1cc(Nc2cc3ncccc3c(N[C@@H]3C[C@H]4CC[C@@H](C3)N4CCC#N)n2)n[nH]1 | Sprague-Dawley rat, female, plasma | oral, 1000 mg/kg/day, last day of 4 weeks |  | 91.8
